Measured values gathered from unrelated publications.
Where no end group is shown, it is not given here.
HapB/HapC/HapE/HapX HapX 24-158: HapB/HapC/HapE/HapX HapX 24-158 (Aspergillus fumigatus)
Aspartate aminotransferase: Aspartate aminotransferase (Streptococcus pneumoniae, UniProt Q8DNN5)
B1: acrA (Escherichia coli, UniProt P0AE06); N-terminal lipid at C25; chain CDDKQAQQGGQQMPAVGVVTVKTEPLQITTELPGRTSAYRIAEVRPQVSGIILKRNFKEGSDIEAGVSLYQIDPATYQATYDSAKGDLAKAQAAANIAQLTVNRYQKLLGTQYISKQEYDQALADAQQANAAVTAAKAAVETARINLAYTKVTSPISGRIGKSNVTEGALVQNGQATALATVQQLDPIYVDVTQSSNDFLRLKQELANGTLKQENGKAKVSLITSDGIKFPQDGTLEFSDVTVDQTTGSITLRAIFPNPDHTLLPGMFVRARLEEGLNPNAILVPQQGVTRTPRGDATVLVVGADDKVETRPIVASQAIGDKWLVTEGLKAGDRVVISGLQKVRPGVQVKAQEVTADNNQQAASGAQPEQSKS
Chain of UniProt P23946 (whole entry, looked up): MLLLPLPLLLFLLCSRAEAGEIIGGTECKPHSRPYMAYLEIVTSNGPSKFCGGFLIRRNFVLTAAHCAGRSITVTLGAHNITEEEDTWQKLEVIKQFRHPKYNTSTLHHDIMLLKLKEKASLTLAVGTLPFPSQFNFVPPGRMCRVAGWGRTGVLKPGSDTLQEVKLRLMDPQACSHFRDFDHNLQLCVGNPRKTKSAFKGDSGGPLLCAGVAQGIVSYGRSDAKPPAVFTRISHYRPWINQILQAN
Chain of UniProt P31224 (whole entry, unmodified, looked up): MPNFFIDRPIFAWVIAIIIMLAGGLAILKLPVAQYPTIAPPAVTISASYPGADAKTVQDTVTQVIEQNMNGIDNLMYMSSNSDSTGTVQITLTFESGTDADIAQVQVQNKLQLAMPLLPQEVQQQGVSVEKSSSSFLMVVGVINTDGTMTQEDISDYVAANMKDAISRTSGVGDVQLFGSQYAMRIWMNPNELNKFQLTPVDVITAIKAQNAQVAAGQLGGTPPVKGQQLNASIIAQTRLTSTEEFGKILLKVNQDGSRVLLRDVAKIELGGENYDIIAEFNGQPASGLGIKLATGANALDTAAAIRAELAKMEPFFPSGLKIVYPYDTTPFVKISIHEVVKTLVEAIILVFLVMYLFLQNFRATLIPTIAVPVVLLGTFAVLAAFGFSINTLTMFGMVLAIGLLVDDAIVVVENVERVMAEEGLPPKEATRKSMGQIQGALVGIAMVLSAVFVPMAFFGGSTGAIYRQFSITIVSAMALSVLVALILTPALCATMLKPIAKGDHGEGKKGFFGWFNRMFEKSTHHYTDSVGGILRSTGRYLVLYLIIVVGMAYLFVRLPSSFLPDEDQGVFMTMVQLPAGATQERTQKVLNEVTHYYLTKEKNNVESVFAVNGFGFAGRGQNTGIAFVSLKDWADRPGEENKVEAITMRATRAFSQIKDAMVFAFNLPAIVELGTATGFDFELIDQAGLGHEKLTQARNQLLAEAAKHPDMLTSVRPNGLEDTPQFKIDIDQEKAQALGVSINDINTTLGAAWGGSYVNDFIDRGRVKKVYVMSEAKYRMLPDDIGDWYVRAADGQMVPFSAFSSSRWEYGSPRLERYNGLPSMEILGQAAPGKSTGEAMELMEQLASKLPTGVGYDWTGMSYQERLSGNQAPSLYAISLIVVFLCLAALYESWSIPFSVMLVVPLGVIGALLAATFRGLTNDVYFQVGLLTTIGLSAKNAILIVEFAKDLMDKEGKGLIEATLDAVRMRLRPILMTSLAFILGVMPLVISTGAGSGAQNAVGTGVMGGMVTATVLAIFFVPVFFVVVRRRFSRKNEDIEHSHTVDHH

Substance	target or system	test	system	conditions	how to read	measurement	result
Cc1[nH]c2cc(CN3CCN(c4ccc(F)cc4)CC3)ccc2c(=O)c1Br	Plasmodium berghei	parasite growth	GFP, blood stages, mouse	oral, 10 mg/kg, 144 h	–	inhibition	91%
DVDHVFLRF-NH2 (C-amide)	Drosophila melanogaster	gut contraction	adult gut	1 µM, within 10 min	reference: DMS effect	inhibition	100%
GATTGGACCAATCACCATGACGGATTGGTAATCCTGCTGA (dsDNA)	HapB/HapC/HapE/HapX HapX 24-158	SPR	double-stranded DNA, one strand shown	HapX on preformed CBC:DNA	–	Kd	< 100 nM
B1 (acrA)	acrB C493S/C887S/S1043C (Escherichia coli, UniProt P31224)	SPR	–	two-state model, association	–	k1	23900 M⁻¹ s⁻¹
O=C(NCC1CCNCC1)c1cc2ccc(-c3ccoc3)cc2[nH]1	Zika virus	viral replication	U-87 MG, FLR	3 µM	–	inhibition	90%
Cc1ccc(CNC(=O)c2nc(Cl)c3cccnc3c2O)cc1	Human betaherpesvirus 5	viral replication, inhibitor	HFF	10 µM	–	inhibition	51%
ADVDHVFLRF-NH2 (C-amide)	Drosophila melanogaster	gut contraction	adult gut	1 µM, within 10 min	reference: DMS effect	inhibition	100%
RmS-6, glycosylated (Rhipicephalus microplus)	F9 factor IXa (Bos taurus)	chromogenic substrate hydrolysis, inhibitor	–	1 µM	–	protease inhibition	< 20%
DHVFLRF-NH2 (C-amide)	Drosophila melanogaster	gut contraction	wandering third instar larval gut	injection, 1 µM, within 10 min	reference: DMS effect	inhibition	8%
O=C(NCC1CCNCC1)c1c[nH]c2nc(-c3ccc(CN4CCOCC4)cc3)ccc12	Zika virus	viral replication	U-87 MG, FLR	10 µM	–	inhibition	< 68%
C[S+]([O-])c1ccc(-c2nc(-c3ccncc3)c(-c3ccc(F)cc3)[nH]2)cc1 (stereo not shown)	Enterovirus A71	RT-qPCR, measured: viral RNA	HEK-293T overexpressing Hsp27	8 µM, 9 h	–	inhibition	50%
TDVDHVFLRA-NH2 (C-amide)	Drosophila melanogaster	gut contraction	adult gut	1 µM, within 10 min	reference: DMS effect	inhibition	90%
CC(=O)OC[C@]12Oc3ccc(-c4ccc(O)c5c4O[C@@]4(COC(C)=O)C(=C(O)C[C@@H](C)[C@H]4OC(C)=O)C5=O)c(O)c3C(=O)C1=C(O)C[C@@H](C)[C@H]2OC(C)=O	Phyllosticta citricarpa	mycelial growth	–	10000 µg/mL, 504 h	–	inhibition	51.4%
O=C(O)c1nc(-c2ccc(C(F)(F)F)cc2)c2cccnc2c1O	Human betaherpesvirus 5	viral replication, inhibitor	HFF	10 µM	–	inhibition	16%
O=[N+]([O-])c1ccc2c(c1)nc(Cl)n2CCO	Human immunodeficiency virus 1	viral replication, inhibitor	TZM-bl	1 µg/mL	–	inhibition	1.11%
O=C(NCc1ccc(Cl)c(Cl)c1)c1nc(Cl)c2cccnc2c1O	Human betaherpesvirus 5	viral replication, inhibitor	HFF	10 µM	–	inhibition	31%

Substance	target or system	test	system	conditions	how to read	measurement	result
O=[N+]([O-])c1ccc2c(c1)nc(Cl)n2CCCO	Human immunodeficiency virus 1	viral replication, inhibitor	TZM-bl	10 µg/mL	–	inhibition	-1.1%
UUUUUUUUUUUUUUUU (ssRNA)	hfq S39W (Listeria monocytogenes, UniProt B8DG33)	fluorescence polarization	–	–	–	Kd	2.7 nM
TTCTAATTGCCTATGACTTTTTTTAGATAATAAATCTCTCATGAATATCTTTCTCTCTTTATAAATTATCGGATTAAACCTCTTGCAATTATACCACAAAGAATAGGTATAGCATGATATAACGACTTTTCCTAAAATCTTTTATTTCGTATAATAACACTACGGAGACAATATATAAACAATTTTCTTATTTTACCGTCTATTGAGGGCGTGAATACAGAATC (dsDNA)	Aspartate aminotransferase	DNase I footprinting	double-stranded DNA, one strand shown	together with: CaCl2 1 mM, MgCl2 10 mM	–	binding	binds
OCCn1c(Cl)nc2cc(Br)c(Br)cc21	Human immunodeficiency virus 1	viral replication, inhibitor	TZM-bl	1.25 µg/mL	–	inhibition	33.3%
VDHVFLRF-NH2 (C-amide)	Drosophila melanogaster	gut contraction	wandering third instar larval gut	injection, 1 µM, within 10 min	reference: DMS effect	inhibition	29%
OCCn1c(Cl)nc2ccccc21	Human immunodeficiency virus 1	viral replication, inhibitor	TZM-bl	10 µg/mL	–	inhibition	2.06%
RmS-17, glycosylated (Rhipicephalus microplus)	CMA1 (Homo sapiens, UniProt P23946)	chromogenic substrate hydrolysis, inhibitor	–	1 µM	–	protease inhibition	< 20%
OCCCn1c(Cl)nc2cc(Br)c(Br)cc21	Human immunodeficiency virus 1	viral replication, inhibitor	TZM-bl	10 µg/mL	–	inhibition	-4.5%
melittin	–	membrane partitioning, ITC enthalpy vs temperature	POPC/POPG LUVs 100:0%	concentration not given, 25 to 60 °C	–	heat capacity change	-0.61 kcal/mol/K
CAAATTCTTTAATTGTTGCTATTATATAATTTTTAAAATTAAAAATATAATCTTTAGACTTGAATTTGATTCTGTATTCACGCCCTCAATAGACGGTAAAATAAGAAAATTGTTTATATATTGTCTCCGTAGTGTTATTATACGAAATAAAAGATTTTAGGAAAAGTCGTTATATCATGCTATACCTATTCTTTGTGGTATAATTGCAAGAGGTTTAATCCG (dsDNA)	Aspartate aminotransferase	EMSA	double-stranded DNA, one strand shown	underestimates first site affinity	–	K1/2	50 nM
O=[N+]([O-])c1cc2nc(Cl)n(CCO)c2cc1[N+](=O)[O-]	Human immunodeficiency virus 1	viral replication, inhibitor	TZM-bl	10 µg/mL	–	inhibition	-6.28%
C=C1[C@H](CO)[C@@H](O)C[C@@H]1n1cnc2c(=O)[nH]c(N)nc21	Hepatitis B virus	viral replication, inhibitor	HepG2.2.15	10 µM, 48 h	–	inhibition	90%
HVFLRF-NH2 (C-amide)	Drosophila melanogaster	heart rate	wandering third instar larval heart	40 nL injected, 1 µM, 10 min	reference: DMS	inhibition	36%
CTGTCTGCCAAAGAGCGTGTCCCTGTTAATAATGTTATGG (dsDNA)	HapB/HapC/HapE/HapX HapX 24-158	SPR	double-stranded DNA, one strand shown	HapX on preformed CBC:DNA	–	Kd	< 100 nM
N#C[C@]1(CO)/C(=C\F)[C@@H](n2cnc3c(=O)[nH]c(N)nc32)C[C@@H]1O	Hepatitis B virus	HBV DNA production	HepG2.2.15, wild type	10 µM, 11 d exposure then 14 d without compound	–	inhibition	95 to 100%

For quick reference, copied from above:
Substance	target or system	test	system	conditions	how to read	measurement	result
O=[N+]([O-])c1cc2nc(Cl)n(CCO)c2cc1[N+](=O)[O-]	Human immunodeficiency virus 1	viral replication, inhibitor	TZM-bl	10 µg/mL	–	inhibition	-6.28%
TDVDHVFLRA-NH2 (C-amide)	Drosophila melanogaster	gut contraction	adult gut	1 µM, within 10 min	reference: DMS effect	inhibition	90%
CTGTCTGCCAAAGAGCGTGTCCCTGTTAATAATGTTATGG (dsDNA)	HapB/HapC/HapE/HapX HapX 24-158	SPR	double-stranded DNA, one strand shown	HapX on preformed CBC:DNA	–	Kd	< 100 nM
Cc1[nH]c2cc(CN3CCN(c4ccc(F)cc4)CC3)ccc2c(=O)c1Br	Plasmodium berghei	parasite growth	GFP, blood stages, mouse	oral, 10 mg/kg, 144 h	–	inhibition	91%
